Results of several laboratories.
Protocols differ between the studies behind these lines. ± gives the spread as reported.

NS(=O)(=O)c1ccc(N2N=C(C(F)(F)F)CC2c2ccc(F)cc2F)cc1 (centres unmarked)
AUC(0-24h) (Beagle dog, both sexes, plasma; oral, 1 mg/kg, single dose): 5280 ± 2300 ng·h/mL

CC(C)C[C@H](NC(=O)[C@H](CCCCN)NC(=O)CNC(=O)[C@H](CC(C)C)NC(=O)[C@@H](NC(=O)[C@@H]1CSSC[C@H](N)C(=O)N[C@@H](CO)C(=O)N[C@@H](CC(N)=O)C(=O)N[C@@H](CC(C)C)C(=O)N[C@@H](CO)C(=O)N[C@@H]([C@@H](C)O)C(=O)N1)C(C)C)C(=O)N[C@@H](CO)C(=O)N[C@@H](CCC(N)=O)C(=O)N[C@@H](CCC(=O)O)C(=O)N[C@@H](CC(C)C)C(=O)N[C@@H](Cc1c[nH]cn1)C(=O)N[C@@H](CCCCN)C(=O)N[C@@H](CC(C)C)C(=O)N[C@@H](CCC(N)=O)C(=O)N[C@H](C(=O)N[C@@H](Cc1ccc(O)cc1)C(=O)N1CCC[C@H]1C(=O)N[C@@H](CCCNC(=N)N)C(=O)N[C@H](C(=O)N[C@@H](CC(N)=O)C(=O)N[C@H](C(=O)NCC(=O)N[C@@H](CO)C(=O)NCC(=O)N[C@H](C(=O)N1CCC[C@H]1C(N)=O)[C@@H](C)O)[C@@H](C)O)[C@@H](C)O)[C@@H](C)O
FTIR amide I band (FTIR spectroscopy; KBr tablet; powder, inlet air 130 °C): 1660 cm⁻¹

O=C(CCc1ccc(CNC(C(=O)OC2CCCC2)C2CCCCC2)cn1)NO (centres unmarked)
Vd/F (human, plasma; oral, 20 mg, multiple doses, once daily, patients): 107 L

CCCCN1C(=O)c2cccc3c(NCCCCCN4CCOCC4)ccc(c23)C1=O
fluorescence brightness (aqueous medium; pH 6): 3130 M⁻¹ cm⁻¹

Cc1ccc(/N=N/c2c(O)ccc3ccccc23)c(C)c1
measured concentration (rat whole blood QC samples; 5.0 µg/L, 4 h, room temperature, short-term stability): 4.95 µg/L

Cc1c(Cl)c(C)[n+]([O-])c(Cl)c1-c1no[14c](-c2cc(O)c(O)c([N+](=O)[O-])c2)n1
total radioactivity recovered (human, male, urine, faeces, expired air; oral, 100 mg, 144 h; baseline: dose): > 90%

CCOc1ccc2c(c1)C(C)CC(C)(C)N2 (centres unmarked)
tissue residue (LC-MS/MS; laying hens, kidney; oral in feed, 50 mg/kg feed ethoxyquin, 56 days): 1.9 ± 1.3 ng/g

CCCCCCNCC(=O)O
logP (shake flask; water; 24 h): -0.89

CC[C@H](C)[C@H](NC(=O)[C@H](C)NC(=O)CNC(=O)[C@H](Cc1ccccc1)NC(=O)[C@H](CC(N)=O)NC(=O)[C@H](CC(N)=O)NC(=O)[C@H](CO)NC(=O)[C@H](CO)NC(=O)[C@H](Cc1c[nH]cn1)NC(=O)[C@@H](NC(=O)[C@H](CC(C)C)NC(=O)[C@H](Cc1ccccc1)NC(=O)[C@H](CC(N)=O)NC(=O)[C@H](C)NC(=O)[C@H](CC(C)C)NC(=O)[C@H](CCCNC(=N)N)NC(=O)[C@H](CCC(N)=O)NC(=O)[C@@H](NC(=O)[C@H](C)NC(=O)[C@@H]1CSSC[C@H](NC(=O)[C@@H](N)CCCCN)C(=O)N[C@@H](CC(N)=O)C(=O)N[C@@H]([C@@H](C)O)C(=O)N[C@@H](C)C(=O)N[C@@H]([C@@H](C)O)C(=O)N1)[C@@H](C)O)C(C)C)C(=O)N[C@@H](CC(C)C)C(=O)N1CCC[C@H]1C(=O)N1CCC[C@H]1C(=O)N[C@H](C(=O)N[C@@H](CC(N)=O)C(=O)N[C@H](C(=O)NCC(=O)N[C@@H](CO)C(=O)N[C@@H](CC(N)=O)C(=O)N[C@H](C(=O)N[C@@H](Cc1ccc(O)cc1)C(N)=O)[C@@H](C)O)C(C)C)[C@@H](C)O
collision cross section (ion mobility mass spectrometry; nitrogen drift gas; monomer charge +4, compact conformer): 545 ± 14.4 Å²

COC(=O)c1ccc(-c2cn(Cc3cc(Cl)ccc3O[11CH3])nn2)cc1
distribution volume (PET, one-tissue compartment model; rhesus monkey, brain Insula; dose not given): 0.516 mL/cm³

C#CCNC(=O)C(CC(C)(C)F)NC(c1ccc(-c2ccc(S(C)(=O)=O)cc2)cc1)C(F)(F)F (centres unmarked)
cysteine adduct formation (LC-MS UV trace; aqueous buffer; concentration not given, 23 h, pH 8.0, 37 °C, with: cysteine 10 mM): < 1%

CC[C@@H](C)[C@H]1NC(=O)[C@@H]([C@H](C)O)NC(=O)[C@@H](Cc2c[nH]cn2)NC(=O)CNC(=O)[C@@H](CCCNC(=N)N)NC(=O)CNC(=O)[C@@H](Cc2ccccc2)NC1=O
retina concentration (rat, retina; eye drop, dose not given, 3 h): ~4.3 µM

Cn1c(=O)oc2ccc(-c3ccc(CC(C#N)NC(=O)C4CNCCCO4)c(F)c3)cc21 (centres unmarked)
subjects with TEAE (item: blood triglycerides increased; human; 15 mg single dose, fasted): 33.3%

COc1cc2c(cc1OC)CN(CCCCn1ccc3cc(OCC[18F])ccc31)C2
tracer uptake (male CD-1 mouse, bone; intravenous, 280 kBq, 15 min): 4.4 %ID/g

CC(C)(O)c1ncc([S@](N)(=O)=NC(=O)Nc2c3c(cc4c2CCC4)CCC3)s1
Cmax (human, plasma; oral, 300 mg, single dose, fasted, healthy volunteers): 4520 ng/mL

CN1C(=O)[C@@H](Cc2ccc(O)cc2)NC(=O)CNC(=O)[C@H](Cc2ccc3ccccc3c2)NC(=O)[C@H](CCCNC(=N)N)NC(=O)[C@H]1CCCNC(=O)c1ccc(CNC(=O)CN2CCN(CC(=O)O)CCN(CC(=O)O)CCN(CC(=O)O)CC2)cc1 [gallium-68 labelled]
total effective dose (OLINDA/EXM; human patients; 185 MBq): 2.89 mSv

C[C@]12C[C@H](c3ccc(C4CC4)cc3)C3=C4CCC(=O)C=C4CC[C@H]3[C@@H]1CC[C@@]2(O)C(F)(F)C(F)(F)F
maximal oral bioavailability (human liver microsomes; 100 % absorption assumed): 66%

C[C@H](CN(C)Cc1ccccc1)NC(=O)c1ccc(-c2noc(C(F)(F)[18F])n2)cc1
brain-to-heart ratio (PET; Sprague-Dawley rat, female, brain and heart; intravenous, 30 min; baseline: brain SUV over heart SUV): 3.01 ± 0.23

CCCC[C@H](NC(=O)CNC(=O)CNC(=O)CN1CCN(CC(=O)O)CCN(CC(=O)O)CC1)C(=O)N[C@H]1CC(=O)NCCCC[C@@H](C(N)=O)NC(=O)[C@H](Cc2c[nH]c3ccccc23)NC(=O)[C@H](CCCNC(=N)N)NC(=O)[C@@H](Cc2ccccc2)NC(=O)[C@H](Cc2c[nH]cn2)NC1=O [copper-64 labelled]
uptake ratio (female C57 mouse, B16/F1 melanoma; intravenous, 0.037 MBq, 24 h; baseline: tumour over blood): 42.5

CN1CCC[C@]1(C)/C=C/S(=O)(=O)NC(=O)Nc1c2c(cc3c1CCC3)CCC2
Cmax (human, plasma; oral, 400 mg, single dose, healthy volunteers): 45100 ng/mL

CN1CCC(N[C@@H]2CCc3[nH]c4c(C(N)=O)ccc(-c5ccccc5Cl)c4c3C2)CC1
AUC(0-t) (BALB/c mice; iv, 2 mg/kg): 246 ng·h/mL

COc1ccc(/C=C/c2ccc(-c3ccc(C)cn3)nc2)cc1
radiative decay rate constant (TCSPC; MeCN): 0.47 ns⁻¹

CC(=O)N[C@H](CSSC[C@H](N)C(=O)O)C(=O)N[C@H](C)C(=O)N[C@H](CCCNC(=N)N)C(=O)N[C@H](CCCNC(=N)N)C(=O)N[C@H](CCCNC(=N)N)C(=O)N[C@H](C)C(=O)N[C@H](CCCNC(=N)N)C(N)=O
AUC(0-inf) (male human, plasma; intravenous, 10 mg, single dose, healthy volunteers): 1280 ng·h/mL

NC[C@@H](C(=O)Nc1ccc(-c2cn[nH]c2)cc1)c1ccccc1
cornea score (OECD 405 eye irritation; New Zealand White rabbit, eye; topical, 0.1%, 96 h (day 5), scale 0 to 4; direction not given): 0

COc1ccccc1NC(=O)OC1C(C)C(OC)C=COC2(C)Oc3c(C)c(O)c4c(c3C2=O)C2=NC3(CCN(CC(C)C)CC3)NC2=C(NC(=O)C(C)=CC=CC(C)C(O)C(C)C(O)C1C)C4=O (centres unmarked)
fAUC/MIC ratio (CD-1 mouse female, plasma; oral, 10 mg/kg): 1

CCC1CC2C(C)=CC3C(=O)CCCC3C=CC(C)=CC2C(=O)O1 (centres unmarked)
concentration (male ICR mice, brain; oral, 30 mg/kg, 60 min): 3.4 ± 2.9 ng/g

CC(O)c1cc(Cl)ccc1Cn1c(=S)[nH]c(=O)c2[nH]ccc21 (centres unmarked)
exposure ratio (Sprague-Dawley rat, both sexes, plasma; oral, 125 mg/kg/day; baseline: rat over human clinical doses): ≥ 1.6

Cc1cc2c(cc1C1(c3ncc(C(=O)O)cn3)CC1)C(C)(C)CCC2(C)C
blood triglycerides (Sprague-Dawley rat, male; oral, 100 mg/kg, 9 h, sesame oil vehicle): 177 ± 121 mg/dL

COc1cc(NC(C)=O)c2c(c1O)-c1c(OC)c(OC)cc3c1C(C2)N(C)CC3 (centres unmarked)
remaining compound (rat heart homogenate; 5 µg/mL, 24 h, room temperature, post-preparative storage): 111 ± 2%

CC(C)[C@H](CO)Nc1nc(Nc2ccc(C(=O)NCCNS(=O)(=O)c3cccc4c(N(C)C)cccc34)c(Cl)c2)c2ncn(C(C)C)c2n1
Tmax (mouse, prostate; intraperitoneal, 20 mg/kg): 4 h

Cc1ccc(OCC(=O)O)cc1
t1/2 (Sprague-Dawley rat, female, plasma; oral, 10 mg/kg/day of parent drug, day 1, 90-day repeated dosing): 1.43 h

N=C(N)NCCC[C@@H]1NC(=O)[C@H](Cc2c[nH]c3ccccc23)NC(=O)[C@@H](CC2CCCCC2)NC(=O)[C@@H]2CCCN2C(=O)[C@@H](NC(=O)CCc2ccccc2)CCCNC1=O
distribution rate constant (K12) (C57BL/6J mouse, spinal cord; subcutaneous, 1 mg/kg, single dose, two-compartment model): 0.08 h⁻¹

For quick reference, copied from above:
CN1C(=O)[C@@H](Cc2ccc(O)cc2)NC(=O)CNC(=O)[C@H](Cc2ccc3ccccc3c2)NC(=O)[C@H](CCCNC(=N)N)NC(=O)[C@H]1CCCNC(=O)c1ccc(CNC(=O)CN2CCN(CC(=O)O)CCN(CC(=O)O)CCN(CC(=O)O)CC2)cc1 [gallium-68 labelled]
total effective dose (OLINDA/EXM; human patients; 185 MBq): 2.89 mSv

C[C@H](CN(C)Cc1ccccc1)NC(=O)c1ccc(-c2noc(C(F)(F)[18F])n2)cc1
brain-to-heart ratio (PET; Sprague-Dawley rat, female, brain and heart; intravenous, 30 min; baseline: brain SUV over heart SUV): 3.01 ± 0.23

CC[C@H](C)[C@H](NC(=O)[C@H](C)NC(=O)CNC(=O)[C@H](Cc1ccccc1)NC(=O)[C@H](CC(N)=O)NC(=O)[C@H](CC(N)=O)NC(=O)[C@H](CO)NC(=O)[C@H](CO)NC(=O)[C@H](Cc1c[nH]cn1)NC(=O)[C@@H](NC(=O)[C@H](CC(C)C)NC(=O)[C@H](Cc1ccccc1)NC(=O)[C@H](CC(N)=O)NC(=O)[C@H](C)NC(=O)[C@H](CC(C)C)NC(=O)[C@H](CCCNC(=N)N)NC(=O)[C@H](CCC(N)=O)NC(=O)[C@@H](NC(=O)[C@H](C)NC(=O)[C@@H]1CSSC[C@H](NC(=O)[C@@H](N)CCCCN)C(=O)N[C@@H](CC(N)=O)C(=O)N[C@@H]([C@@H](C)O)C(=O)N[C@@H](C)C(=O)N[C@@H]([C@@H](C)O)C(=O)N1)[C@@H](C)O)C(C)C)C(=O)N[C@@H](CC(C)C)C(=O)N1CCC[C@H]1C(=O)N1CCC[C@H]1C(=O)N[C@H](C(=O)N[C@@H](CC(N)=O)C(=O)N[C@H](C(=O)NCC(=O)N[C@@H](CO)C(=O)N[C@@H](CC(N)=O)C(=O)N[C@H](C(=O)N[C@@H](Cc1ccc(O)cc1)C(N)=O)[C@@H](C)O)C(C)C)[C@@H](C)O
collision cross section (ion mobility mass spectrometry; nitrogen drift gas; monomer charge +4, compact conformer): 545 ± 14.4 Å²

CC(C)[C@H](CO)Nc1nc(Nc2ccc(C(=O)NCCNS(=O)(=O)c3cccc4c(N(C)C)cccc34)c(Cl)c2)c2ncn(C(C)C)c2n1
Tmax (mouse, prostate; intraperitoneal, 20 mg/kg): 4 h

COc1cc2c(cc1OC)CN(CCCCn1ccc3cc(OCC[18F])ccc31)C2
tracer uptake (male CD-1 mouse, bone; intravenous, 280 kBq, 15 min): 4.4 %ID/g
